Published values gathered from unrelated publications.
Compare with care: the assays were run in different laboratories.

With `COc1cc(NC(C)=O)c2c(c1O)-c1c(OC)c(OC)cc3c1C(C2)N(C)CC3` (centres unmarked) the AUC(0-inf) was 59.3 µg·h/mL (HPLC; male Wistar rat, plasma; oral, 200 mg/kg).
`CCCN(c1ccc(C(=O)NCCC(=O)O)cc1)S(=O)(=O)c1cc(C)c(-c2ccc(C(C)(C)C)cc2)c(C)c1` has an AUC(0-inf) of 1.44 µg·h/mL (rat, plasma; intravenous, 2 mg/kg).
For `CSCOC1C(=O)C2(C)C(OCSC)CC3OCC3(OC(C)=O)C2C(OC(=O)c2ccccc2)C2(O)CC(OC(=O)C(O)C(C=C(C)C)NC(=O)OC(C)(C)C)C(C)=C1C2(C)C` (centres unmarked), the AUC(0-inf) was 0.266 µg·h/mL (male Sprague-Dawley rat, plasma; intravenous, 2 mg/kg).
The AUC(0-inf) of `Nc1nc(Cl)nc2c1ncn2Cc1cc(OCC(F)F)cc(OC(F)F)c1` is reported as 23.7 µg·h/mL (Sprague-Dawley rat, plasma; oral, 5 mg/kg).
`Cc1cc(N2CCC(C#N)(C3(C)CC3)C2=O)cc(C(=O)NCc2cc(F)cc(-c3cnn(C)c3)c2)n1` (racemic) gave an AUC(0-inf) of 4.3 µM·h (male Sprague-Dawley rat, plasma; intravenous, 0.9 mg/kg).
For `CC12CC3CC(C)(C1)CC(NC(=O)Nc1ccc(C(=O)N4CCC[C@H](C(N)=O)C4)cc1F)(C3)C2`, the AUC(0-inf) was 8.02 µM·h (Sprague-Dawley rat, plasma; oral, 50 mg/kg).
`CC1(C)CNC(=O)c2ccccc21` has an AUC(0-inf) of 2.94 µg·h/mL (rat, plasma; oral, 5 mg/kg, single dose).
`CNC(=O)N[C@]1(C)CCC[C@@]2(C)C3CC[C@@]4(C)C[C@]3(CCC21)CC4=O` (single isomer, unassigned) gave an AUC(0-inf) of 0.0729 µg·h/mL (male Sprague-Dawley rat, plasma; oral, 2 mg/kg).
For `CC12CC3CC(C)(C1)CC(NC(=O)Nc1ccc(C(=O)N4CCCC(C(N)=O)C4)cc1)(C3)C2` (centres unmarked), the AUC(0-inf) was 0.32 µM·h (Sprague-Dawley rat, plasma; oral, 10 mg/kg).
`Cn1cc(-c2cc(N3CCCCS3(=O)=O)ccc2N[C@H]2CC[C@H](C)CC2)c2cc[nH]c2c1=O` (stereo in doubt) gave an AUC(0-inf) of 0.19 µg·h/mL (Sprague-Dawley rat, plasma; oral, 3 mg/kg).
With `O=C(N[C@@H](CC1CCCCC1)C(=O)N[C@@H](C[C@H]1CCNC1=O)C(=O)C(=O)NC1CC1)OCc1cccc(Cl)c1` the AUC(0-inf) was 21 µg·h/mL (female Sprague-Dawley rat, plasma; intravenous, 10 mg/kg, single dose).
The AUC(0-inf) of `CC(=O)Oc1c2c(c3ccc4c(c3c1OC(C)=O)C=CC(=O)C4(C)C)OC[C@@H]2C` is reported as 15.9 µg·h/mL (female Sprague-Dawley rat, serum; intravenous, 10 mg/kg).
With `CCNC(=O)[C@@H]1CCCN1C(=O)[C@H](CCCNC(=N)N)NC(=O)[C@H](CC(C)C)NC(=O)[C@@H](CC(C)C)NC(=O)[C@H](Cc1ccc(O)cc1)NC(=O)[C@H](CO)NC(=O)[C@H](Cc1c[nH]c2ccccc12)NC(=O)[C@H](Cc1c[nH]cn1)NC(=O)[C@@H]1CCC(=O)N1` the AUC(0-inf) was 9.84 µg·h/mL (male Sprague-Dawley rat, plasma; subcutaneous, 12.5 mg/kg, single dose).
The AUC(0-inf) of `Cn1cc(-c2cc(N3CCCS3(=O)=O)ccc2N[C@H]2CC[C@H](C)CC2)c2cc[nH]c2c1=O` is reported as 0.107 µg·h/mL (Sprague-Dawley rat, plasma; oral, 3 mg/kg).

For quick reference, copied from above:
With `COc1cc(NC(C)=O)c2c(c1O)-c1c(OC)c(OC)cc3c1C(C2)N(C)CC3` (centres unmarked) the AUC(0-inf) was 59.3 µg·h/mL (HPLC; male Wistar rat, plasma; oral, 200 mg/kg).
